Published values from different studies.
Compare with care: the assays were run in different laboratories. Numbers after ± are the reported error.

For CCCC[C@H]1C(=O)N(C)[C@@H](CCCC)C(=O)N[C@@H](CCCNC(=O)CN2CCN(CC(=O)O)CCN(CC(=O)O)CCN(CC(=O)O)CC2)C(=O)N[C@H](C(=O)NCC(N)=O)CSCC(=O)N[C@@H](Cc2ccc(O)cc2)C(=O)N(C)[C@@H](C)C(=O)N[C@@H](CC(N)=O)C(=O)N2CCC[C@H]2C(=O)N[C@@H](Cc2c[nH]cn2)C(=O)N[C@@H](CC(C)C)C(=O)N(C)CC(=O)N[C@@H](Cc2c[nH]c3ccccc23)C(=O)N[C@@H](CO)C(=O)N[C@@H](Cc2c[nH]c3ccccc23)C(=O)N1C [gallium-68 labelled], the tissue uptake was 2.42 ± 0.62 %ID/g (NOD/SCID mice, CHO-hPD-L1 xenograft, bone; 60 min, atezolizumab 10 mg/kg pretreatment).
For C[C@H](O)[C@@H](NC(=O)[C@H]1CCCN1C(=O)[C@@H](CCCCN)NC(=O)[C@@H](CO)NC(=O)[C@@H](Cc1ccc(O)cc1)NC(=O)[C@@H](CC(N)=O)NC(=O)CCOCCOCCOCCNC(=O)CN1CCN(CC(=O)O)CCN(CC(=O)O)CCN(CC(=O)O)CC1)C(=O)N[C@H](CC(=O)O)C(=O)N[C@H](CCCNC(=N)N)C(=O)N[C@H](CCC(N)=O)C(=O)N[C@H](Cc1ccc(O)cc1)C(=O)N[C@H](Cc1c[nH]cn1)C(=O)N[C@H](Cc1ccccc1)C(N)=O [copper-64 labelled], the tissue uptake was 1.08 ± 0.57 %ID/g (C57BL/6J mice, bone; intravenous, 1.85 MBq, 0.3333 h, radiolabelled).
CC[C@H](C)[C@H](NC(=O)[C@H](CCCNC(=N)N)NC(=O)[C@H](CCCCN)NC(=O)[C@H](Cc1ccc(O)cc1)NC(=O)[C@H](CC(=O)O)NC(=O)[C@H](C)NC(=O)CNC(=O)CCOCCOCCOCCNC(=O)CN1CCN(CC(=O)O)CCN(CC(=O)O)CCN(CC(=O)O)CC1)C(=O)N[C@H](C(=O)N[C@H](C(=O)N[C@@H](CCCCN)C(=O)N[C@H](C(=O)N[C@@H](CC(N)=O)C(N)=O)C(C)C)C(C)C)[C@@H](C)O [copper-64 labelled] has a tissue uptake of 0.114 ± 0.022 %ID/g (ex vivo gamma counting; C57BL/6J male mice, B16-F10 tumour, brain; intravenous, 1.85 MBq, 20 min).
With CSCC[C@H](NC(=O)CNC(=O)[C@H](CCCCN)NC(=O)[C@H](CC(C)C)NC(=O)[C@@H]1CCCN1C(=O)[C@H](CO)NC(=O)[C@H](Cc1c[nH]cn1)NC(=O)[C@H](Cc1c[nH]c2ccccc12)NC(=O)[C@H](CCCNC(=N)N)NC(=O)[C@H](CC(C)C)NC(=O)[C@H](CCCNC(=N)N)NC(=O)[C@H](Cc1c[nH]c2ccccc12)NC(=O)[C@H](CS)NC(=O)CCCCCNC(=O)CN1CCN(CC(=O)O)CCN(CC(=O)O)CCN(CC(=O)O)CC1)C(=O)O [copper-64 labelled] the tissue uptake was 11 ± 1.31 %ID/g (PET imaging; BALB/c nude mice, kidney; intravenous, dose not given, 4 h, Huh-7 tumour-bearing).
The tissue uptake of CC(C)C[C@@H](NC(=O)[C@@H](CCCNC(=N)N)NC(=O)[C@@H](Cc1c[nH]cn1)NC(=O)[C@@H](Cc1c[nH]c2ccccc12)NC(=O)[C@@H](Cc1c[nH]cn1)NC(=O)[C@@H](Cc1ccccc1)NC(=O)[C@H](NC(=O)[C@@H](Cc1ccc(O)cc1)NC(=O)CNC(=O)CNC(=O)CCOCCOCCOCCNC(=O)CN1CCN(CC(=O)O)CCN(CC(=O)O)CC1)[C@H](C)O)C(=O)N[C@H](CC(N)=O)C(=O)N1CCC[C@@H]1C(=O)O [gallium-68 labelled] is reported as 0.87 ± 0.22 %ID/g (gamma counting; C57BL/6 mice, male, brain; intravenous, 1.85 MBq, 30 min).
The tissue uptake of CC[C@H](C)[C@H](NC(=O)[C@H](CCCCN)NC(=O)CNC(=O)[C@H](CC(C)C)NC(=O)[C@H](Cc1ccccc1)NC(=O)[C@H](CCCCN)NC(=O)[C@H](CO)NC(=O)[C@H](Cc1ccccc1)NC(=O)[C@H](Cc1c[nH]c2ccccc12)NC(=O)[C@H](CCC(N)=O)NC(=O)[C@@H](NC(=O)[C@H](Cc1ccccc1)NC(=O)CCCCCNC(=O)CN1CCN(CC(=O)O)CCN(CC(=O)O)CCN(CC(=O)O)CC1)C(C)C)C(=O)N[C@@H](CCC(=O)O)C(=O)N1CCC[C@H]1C(=O)N[C@@H](CC(=O)O)C(=O)N[C@H](C(=O)N[C@@H](CO)C(=O)N[C@@H](CCC(N)=O)C(=O)N[C@H](C(=O)N[C@@H](CCC(N)=O)C(=O)N[C@@H](CC(=O)O)C(=O)N1CCC[C@H]1C(=O)N[C@@H](CC(N)=O)C(=O)N[C@@H](CC(=O)O)C(=O)N[C@@H](CCC(N)=O)C(=O)N[C@@H](Cc1ccc(O)cc1)C(=O)N[C@@H](CCC(=O)O)C(=O)N1CCC[C@H]1C(=O)N[C@@H](Cc1ccccc1)C(=O)O)C(C)C)C(C)C [copper-64 labelled] is reported as 0.1 ± 0.04 %ID/g (GZMB-/- mice, CT26 tumour-bearing, brain; 2 h, checkpoint inhibitor-treated).
For CC[C@H](C)[C@H](NC(=O)[C@H](CCCNC(=N)N)NC(=O)[C@H](CCCCN)NC(=O)[C@H](Cc1ccc(O)cc1)NC(=O)[C@H](CC(=O)O)NC(=O)[C@H](C)NC(=O)CNC(=O)CCOCCOCCOCCNC(=O)CN1CCN(CC(=O)O)CCN(CC(=O)O)CCN(CC(=O)O)CC1)C(=O)N[C@H](C(=O)N[C@@H](CC(C)C)C(=O)N[C@@H](CCCCN)C(=O)N[C@H](C(=O)N[C@@H](CC(N)=O)C(N)=O)C(C)C)[C@@H](C)O [copper-64 labelled], the tissue uptake was 1.27 ± 0.428 %ID/g (ex vivo gamma counting; C57BL/6J male mice, B16-F10 tumour, spleen; intravenous, 1.85 MBq, 100 min).
The tissue uptake of [2H]C([2H])([18F])[C@]([2H])(N)C(=O)O is reported as 0.86 ± 0.08 %ID/cc (PET; athymic nude mice, U-87 MG, tumor; dose not given, 60 min post-injection).

Repeated from above:
For C[C@H](O)[C@@H](NC(=O)[C@H]1CCCN1C(=O)[C@@H](CCCCN)NC(=O)[C@@H](CO)NC(=O)[C@@H](Cc1ccc(O)cc1)NC(=O)[C@@H](CC(N)=O)NC(=O)CCOCCOCCOCCNC(=O)CN1CCN(CC(=O)O)CCN(CC(=O)O)CCN(CC(=O)O)CC1)C(=O)N[C@H](CC(=O)O)C(=O)N[C@H](CCCNC(=N)N)C(=O)N[C@H](CCC(N)=O)C(=O)N[C@H](Cc1ccc(O)cc1)C(=O)N[C@H](Cc1c[nH]cn1)C(=O)N[C@H](Cc1ccccc1)C(N)=O [copper-64 labelled], the tissue uptake was 1.08 ± 0.57 %ID/g (C57BL/6J mice, bone; intravenous, 1.85 MBq, 0.3333 h, radiolabelled).
